Literature values that unrelated publications cite.
Numbers after ± are the reported error.
Genome polyprotein NS2B-NS3 protease: Genome polyprotein, NS2B-NS3 protease (dengue virus type 2, UniProt P29990)
Chain of UniProt Q14831 (whole entry, looked up): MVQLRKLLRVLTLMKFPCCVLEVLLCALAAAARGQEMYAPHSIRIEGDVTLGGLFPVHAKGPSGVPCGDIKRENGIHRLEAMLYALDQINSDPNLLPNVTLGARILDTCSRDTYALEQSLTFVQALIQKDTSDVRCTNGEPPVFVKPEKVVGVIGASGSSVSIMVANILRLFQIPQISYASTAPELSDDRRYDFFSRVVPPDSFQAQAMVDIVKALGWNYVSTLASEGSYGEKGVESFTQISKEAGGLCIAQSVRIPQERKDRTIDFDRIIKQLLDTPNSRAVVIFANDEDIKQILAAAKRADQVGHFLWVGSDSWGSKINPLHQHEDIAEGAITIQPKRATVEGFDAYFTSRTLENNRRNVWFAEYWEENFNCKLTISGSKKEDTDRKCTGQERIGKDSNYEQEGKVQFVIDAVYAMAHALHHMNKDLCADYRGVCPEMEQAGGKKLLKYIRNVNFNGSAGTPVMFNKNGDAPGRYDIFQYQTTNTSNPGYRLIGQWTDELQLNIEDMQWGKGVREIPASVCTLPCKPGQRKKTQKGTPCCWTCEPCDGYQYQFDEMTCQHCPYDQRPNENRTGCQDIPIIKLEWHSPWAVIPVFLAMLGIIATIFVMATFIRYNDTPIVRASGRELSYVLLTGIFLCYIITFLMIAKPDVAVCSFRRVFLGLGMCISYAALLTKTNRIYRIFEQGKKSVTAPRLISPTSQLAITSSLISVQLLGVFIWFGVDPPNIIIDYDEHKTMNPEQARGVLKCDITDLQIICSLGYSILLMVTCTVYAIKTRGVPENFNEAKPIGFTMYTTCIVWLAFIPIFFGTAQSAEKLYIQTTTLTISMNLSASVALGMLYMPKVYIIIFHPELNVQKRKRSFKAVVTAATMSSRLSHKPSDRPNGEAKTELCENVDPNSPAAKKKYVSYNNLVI
Chain of UniProt P02716 (whole entry, looked up): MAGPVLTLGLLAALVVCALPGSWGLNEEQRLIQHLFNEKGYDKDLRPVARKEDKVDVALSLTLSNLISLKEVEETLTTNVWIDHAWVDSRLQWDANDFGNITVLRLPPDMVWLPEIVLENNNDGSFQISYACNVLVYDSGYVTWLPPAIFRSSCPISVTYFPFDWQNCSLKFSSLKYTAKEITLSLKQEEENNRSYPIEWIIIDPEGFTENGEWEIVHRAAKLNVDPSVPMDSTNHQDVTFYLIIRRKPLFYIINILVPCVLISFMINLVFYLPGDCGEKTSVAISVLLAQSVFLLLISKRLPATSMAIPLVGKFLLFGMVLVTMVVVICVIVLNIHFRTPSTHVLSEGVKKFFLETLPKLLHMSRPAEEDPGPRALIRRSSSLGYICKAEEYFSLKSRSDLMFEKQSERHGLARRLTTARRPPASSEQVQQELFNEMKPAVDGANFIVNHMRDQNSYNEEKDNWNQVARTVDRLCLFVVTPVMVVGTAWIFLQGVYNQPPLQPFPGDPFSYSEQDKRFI
Chain of UniProt P20782 (whole entry, looked up): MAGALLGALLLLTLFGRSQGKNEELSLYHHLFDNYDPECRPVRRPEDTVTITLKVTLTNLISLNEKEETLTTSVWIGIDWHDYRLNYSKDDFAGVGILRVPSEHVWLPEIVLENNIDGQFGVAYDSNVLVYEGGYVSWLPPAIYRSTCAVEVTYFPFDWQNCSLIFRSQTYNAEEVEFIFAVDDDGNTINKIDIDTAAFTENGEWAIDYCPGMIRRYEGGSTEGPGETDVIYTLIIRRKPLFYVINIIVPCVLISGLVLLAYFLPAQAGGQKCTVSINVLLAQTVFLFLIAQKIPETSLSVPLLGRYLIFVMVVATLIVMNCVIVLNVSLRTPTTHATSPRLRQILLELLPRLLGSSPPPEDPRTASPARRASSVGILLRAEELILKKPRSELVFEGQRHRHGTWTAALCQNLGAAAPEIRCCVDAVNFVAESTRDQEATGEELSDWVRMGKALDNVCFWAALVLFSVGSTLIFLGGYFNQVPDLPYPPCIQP
Chain of UniProt P04756 (whole entry, looked up): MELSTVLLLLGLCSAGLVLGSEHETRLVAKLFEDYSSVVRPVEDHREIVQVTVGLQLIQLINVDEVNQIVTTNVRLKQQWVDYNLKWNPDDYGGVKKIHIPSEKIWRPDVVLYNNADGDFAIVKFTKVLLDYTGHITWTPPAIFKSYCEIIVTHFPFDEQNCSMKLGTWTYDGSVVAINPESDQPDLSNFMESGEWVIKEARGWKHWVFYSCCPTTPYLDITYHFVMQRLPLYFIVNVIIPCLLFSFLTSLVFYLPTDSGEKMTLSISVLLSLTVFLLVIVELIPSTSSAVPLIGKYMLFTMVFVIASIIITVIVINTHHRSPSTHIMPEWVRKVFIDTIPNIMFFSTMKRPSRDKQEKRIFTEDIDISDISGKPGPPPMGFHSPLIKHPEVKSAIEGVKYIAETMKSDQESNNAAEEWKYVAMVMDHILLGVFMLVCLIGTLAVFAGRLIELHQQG

CCCN(C)c1ccc(C(=O)C=C(O)C(F)(F)C(F)(F)F)cn1  Ki (Plasmodium falciparum formate-nitrite transporter; binding, FCCS; isolated protein): 98 ± 11 nM
Cc1nc(-c2ccncc2)sc1C(=O)NC(C(=O)Nc1cccc(C(N)=O)c1)c1ccc(OCc2ccccc2)cc1 (centres unmarked)  EC50 (Genome polyprotein NS2B-NS3 protease; DENV-2 protease cell reporter; HeLa): 5100 nM
CN1CCN(c2ccc3[nH]c(-c4ccc5[nH]c(-c6ccc(OCCCCNC(=O)c7ccc8c(c7)C7(OC8=O)c8ccc(N(C)C)cc8[Si](C)(C)c8cc(N(C)C)ccc87)cc6)nc5c4)nc3c2)CC1  Kd (hairpin DNA; binding; PBS): 8500 ± 1700 nM
COc1cc(F)cc2c(N3CCN4c5c(F)cccc5OC[C@@H]4C3)c(C#N)nnc12  EC50 (GRM7 (Homo sapiens, UniProt Q14831); positive allosteric modulator): 150 nM
COc1ccc(Nc2nc(Nc3ccc(OCC[18F])cc3)ncc2Br)cc1  tissue uptake (S180 tumour-bearing mice, bone; intravenous, 60 min): 4.16 ± 0.46 %ID/g
COc1ccc(S(=O)(=O)N2CCCCC2)cc1NC(=O)c1[nH]c(C)c2c1CCCCC2=O  Kd (BRD4 bromodomain; binding): 82 nM
O=C(C=C(O)C(F)(F)C(F)(F)F)c1ccc(NC2CCC2)nc1  Ki (Plasmodium falciparum formate-nitrite transporter; binding, FCCS; isolated protein): 23 ± 7 nM
Nc1nc(OCc2ccc(CNC(=O)C(F)(F)F)cc2)c2[nH]cnc2n1  Kd (Pin1; isothermal titration calorimetry): 2900 nM
C[N+](C)(C)CCOC(N)=O  Kd (Chrnd/Chrna1/Chrne (Mus musculus, UniProt P02716+P04756+P20782); wild-type receptor): 400000 nM
Cc1onc(-c2ccc(F)cc2)c1C(=O)N[C@H](C(=O)Nc1cccc(C(N)=O)c1)c1ccc(OCc2ccccc2)cc1  EC50 (Genome polyprotein NS2B-NS3 protease; DENV-2 protease cell reporter; HeLa): 8100 nM
Cc1noc2ccc(-c3nc4ccc(N5CCOC[C@H]5C)cc4n3CC3CCCCC3)cc12  Kd (Bromodomain-containing protein 4, BD1 (BRD4, Homo sapiens, UniProt O60885); binding): 81 nM
CCNc1ccc(C(=O)C=C(O)C(F)(F)C(F)(F)F)cn1  Ki (Plasmodium falciparum formate-nitrite transporter; binding, FCCS; isolated protein): 21 ± 5 nM
CN1CCN(c2ccc3[nH]c(-c4ccc5[nH]c(-c6ccc(OCCCCNC(=O)c7ccc8c(c7)C7(OC8=O)c8ccc(N(C)C)cc8C(C)(C)c8cc(N(C)C)ccc87)cc6)nc5c4)nc3c2)CC1  Kd (hairpin DNA; binding): 4400 ± 1800 nM
O=C(C=C(O)C(F)(F)C(F)(F)F)c1ccc(N2CCNCC2)nc1  Ki (Plasmodium falciparum formate-nitrite transporter; binding, FCCS; isolated protein): 858 ± 129 nM
CS(=O)(=O)Nc1ccc(-c2cncc(-c3cccc4cc[nH]c34)c2)cc1  Kd (PI5P4Kγ): 3.4 nM
Cc1c(OCC(F)(F)F)ccnc1C[S+]([O-])c1nc2ccccc2n1C (centres unmarked)  Kd (β-amyloid; binding; human tissue): ~10 nM
O=C(O)CCCOc1ccccc1-c1cc(-c2ccccc2)n(-c2ccccc2Cl)n1  Kd (FABP3; binding): 303 nM
O=C(C=C(O)C(F)(F)C(F)(F)F)c1ccoc1  Ki (Plasmodium falciparum formate-nitrite transporter; binding, FCCS; isolated protein): 72 ± 6 nM
O=C(N/N=C/c1ccc(O)c(O)c1)c1ccc2ncccc2c1  IC50 (α-glucosidase; inhibitor): 6200 ± 300 nM
CC(C)Nc1ccc(C(=O)C=C(O)C(F)(F)C(F)(F)F)cn1  Ki (Plasmodium falciparum formate-nitrite transporter; binding, FCCS; isolated protein): 67 ± 11 nM
CC(C)c1ccccc1-c1nc(NCc2ccccn2)c2c(ccn2C)n1  Kd (PI5P4Kγ): 68 nM
COc1ccc(C(=O)C=C(O)C(F)(F)C(F)(F)F)c(O)c1  Ki (Plasmodium falciparum formate-nitrite transporter; binding, FCCS; isolated protein): 83 ± 33 nM
CN1CCN(c2ccc3[nH]c(-c4ccc5[nH]c(-c6ccc(OCCCCNC(=O)c7ccc8c(c7)C(=O)OC87c8ccc(N(C)C)cc8[Si](C)(C)c8cc(N(C)C)ccc87)cc6)nc5c4)nc3c2)CC1  Kd (hairpin DNA; binding; PBS): 4800 ± 200 nM

For quick reference, copied from above:
CN1CCN(c2ccc3[nH]c(-c4ccc5[nH]c(-c6ccc(OCCCCNC(=O)c7ccc8c(c7)C(=O)OC87c8ccc(N(C)C)cc8[Si](C)(C)c8cc(N(C)C)ccc87)cc6)nc5c4)nc3c2)CC1  Kd (hairpin DNA; binding; PBS): 4800 ± 200 nM
